# Assay results pooled from the literature.
# Values joined by “and” are separate records of one study, mostly repeats; a detail may differ. ± gives the spread as reported.
SMILES,test,test system,conditions,scale,endpoint,result
COc1cccc(OC)c1-c1cc(C(=O)NC2(C(=O)O)C3CC4CC(C3)CC2C4)nn1-c1ccc(C(=O)N(C)CCCN(C)CCCN(C)C(=O)CN2CCN(CC(=O)[O-])CCN(CC(=O)[O-])CCN(CC(=O)[O-])CC2)cc1C(C)C.[177Lu+3] (stereo not shown),,mouse HT-29 xenograft,"168 h, biodistribution",baseline: tumour over spleen,tumour-to-spleen ratio,5.23
CCn1c(=O)c(-c2cc(NC(=O)Nc3ccccc3)c(F)cc2Br)cc2cnc(NC)cc21,refers to: amylase increased,"human, mild hepatic impairment","oral, 50 mg single dose",,participants with grade ≥ 3 TEAE,12.5%
O=C1CC[C@H](N2Cc3cc(N4CCN(CC5CCN(c6ccc([C@@H]7c8ccc(O)cc8CC[C@@H]7c7ccccc7)cc6)CC5)CC4)ccc3C2=O)C(=O)N1,,human whole blood,"2.5 µM, 60 min",,blood to plasma ratio,0.67
CC(C)[C@H](C(=O)Nc1ccc(C(=O)NO)cc1)c1ccccc1,,whole blood,"1000 ng/mL, 1 h, 4 °C, stability on ice",,measured concentration,1120 ng/mL
O=C(O)CCC(=O)O.[2H]C([2H])([2H])Oc1cc(C)c2[nH]ccc2c1CN1CC[C@@H](C2CC2)C[C@H]1c1ccc(C(=O)O)cc1,,"human, plasma","100 mg twice daily, day 1, multiple ascending dose, geometric mean",,Cmax,1.79 µg/mL
Cc1cccc(CNC(=O)c2cn(CCNC(=O)c3ccccc3S)c3cc4c(cc3c2=O)OC(F)(F)O4)n1,,"Sprague-Dawley rat, male, whole blood","intramuscular, 30 mg/kg of parent drug",,half-life,11.4 h
CO[C@@H]1[C@H](O)[C@@H](CO)O[C@H]1n1c([N+](=O)[O-])nc2c(=O)[nH]c(N)nc21,"depurination, RP-HPLC",citrate-phosphate buffer 0.5 mM,"32 min, pH 2, 37 °C",,nucleoside remaining fraction,0.977
Cn1cc(Nc2nccc(-c3ccc4c(c3)CN(C3COC3)CC[C@H]4NC(=O)c3cn(C(C)(C)C)nn3)n2)cn1,,"human, whole blood","300 mg twice daily, day 7",baseline: pre-dose baseline,transitional B cell count change,120%
COc1cc(Nc2ncc3c(n2)-c2ccc(Cl)cc2C(c2c(F)cccc2OC)=NC3)ccc1C(=O)O,"refers to: Dizziness, grade 2","cancer patients, phase 1/2","oral, dose not given, added: pembrolizumab",,patients with adverse event,4%
O=C(c1cccnc1-c1ccncc1)N1CCC(O)(Cc2ccccc2)CC1,,"healthy Japanese adults, plasma","oral, 200 mg twice daily, day 14",,terminal elimination rate constant,7.78e-05 s⁻¹
N#Cc1ccc2c(c1)[C@H]1CCCN(C(=O)c3ccc4[nH]cnc4c3)[C@H]1C2,,human females,"80 mg, end of trial",,SHBG,52 nmol/L
Cc1ccc(Sc2ccccc2N2CCNCC2)c(C)c1,,healthy adult men,"oral, 10 mg single, 10 day",,blood in urine,0%
COCC(=O)N1CCC[C@H](C(=O)NCc2nc(-c3ccccc3)cs2)C1,,"Sprague-Dawley rat, male, plasma","intravenous, 1 mg/kg",,unbound hepatic CLint,1.14 L/h/kg
O=C(Nc1nc2cccc(-c3ccc(CN4CCS(=O)(=O)CC4)cc3)n2n1)C1CC1,refers to: blood amylase increased,rheumatoid arthritis patients,"oral, 200 mg once daily, 4 weeks, any relatedness",,treatment-emergent adverse events,0%
Nc1nc(O)c2ncn(COC(CO)CO)c2n1,,"Sprague-Dawley rat, male","oral, 10 mg/kg",,mean residence time,2.28 ± 0.783 h
Cc1cc(C)c(CNC(=O)c2cc(Cl)c3c(c2C)O[C@@](C)([C@H]2CC[C@H](N(C)C)CC2)O3)c(=O)[nH]1,,relapsed/refractory NHL patients,"oral, 200 mg once daily, onset after cycle 1 day 1",,grade ≥3 adverse event Hypertension,12.5%
COc1cc(N2CCC3(CCN(C)CC3)CC2)ccc1Nc1ncc(Cl)c(Nc2ccccc2P(C)(C)=O)n1,population PK model,human,"oral, bootstrap median",,V2/F,296 L
Cn1cnc2c(F)c(Nc3ccc(Br)cc3Cl)c(C(=O)NOCCO)cc21,population PK model,"human, plasma","oral, transit compartment absorption model",baseline: fed over fasted,relative bioavailability,0.91
CNC(=O)c1cc(Oc2ccc(NC(=O)Nc3cc(C(C)(C)C)nn3-c3ccc4ncccc4c3)c(F)c2)ccn1,refers to: worst grade 1,human,"oral, dose not given, cycles 1 and 2, High AUC(0-4 h) subgroup",,patients with nervous system disorder AE,33%
C[C@H](CCC(=O)O[C@@H]1O[C@H](C(=O)O)[C@@H](O)[C@H](O)[C@H]1O)[C@H]1CC[C@H]2[C@@H]3[C@H](O)C[C@@H]4C[C@H](O)CC[C@]4(C)[C@H]3CC[C@]12C,,"human, plasma",endogenous baseline diurnal,baseline: daily mean concentration,relative peak deviation,63.9 ± 16.8%
COc1ncc(-c2nc3c(n2C(C)C)[C@H](c2ccc(Cl)cc2)N(c2cc(Cl)cn(C)c2=O)C3=O)c(OC)n1,LC-MS/MS,"human, plasma","oral, 4 mg, cycle 1 day 14, low-dose arm",,Cmax,0.0256 µg/mL
C[C@@H]1[C@H](O)[C@@H](C)/C=C/C=C/C=C/C=C/C=C/C=C/C=C/[C@H](O[C@@H]2O[C@H](C)[C@@H](O)[C@H](N)[C@@H]2O)C[C@@H]2O[C@](O)(C[C@@H](O)C[C@@H](O)[C@H](O)CC[C@@H](O)C[C@@H](O)CC(=O)O[C@H]1C)C[C@H](O)[C@H]2C(=O)O,,human blood,"500 µg/mL, 48 h, DMSO solvent",,hemolysis,17.1% and 18.7% and 19.5%
CNCc1ccc(-c2[nH]c3cc(F)cc4c3c2CCNC4=O)cc1,,human patients,"oral, 600 mg twice daily, grade 1",,AST/ALT increased incidence,3.8%
CC(C)Oc1c(NC(=O)c2ccc(NC(=O)[C@H](CC(N)=O)NC(=O)c3cc(F)c(/N=N/c4c(F)cccc4F)c(F)c3)cc2)ccc(C(=O)N/N=C/c2ccc(C(=O)O)s2)c1O,absorbance,DMSO,"50 °C, PSS to ground state relaxation",,thermal half-life,0.5 h
CCn1cc(C(=O)N2CCOCC2)c(=O)c2cc(NC3Cc4ccccc4C3)cnc21,,"human, fed","oral suspension, 2000 mg/day twice daily, day 8, arithmetic mean",,half-life,5.76 h
Cc1cc(-c2nccc3c2ccn3CC(=O)Nc2ccc(-c3cnccn3)cn2)ccn1,,human,"20 mg once daily, multiple ascending dose",,subjects with Erythema adverse event,0%
CC(C)(C)c1ccc(O)c(CN(Cc2cc(C(C)(C)C)ccc2O)C2CCC(NC(N)=O)CC2)c1 (stereo not shown),,"C57BL/6 mice, male, plasma","intraperitoneal, 10 mg/kg, single dose",,dose-normalised Cmax,224 ng/mL per mg/kg
NCCONC(=O)[C@@H]1CC[C@@H]2CN1C(=O)N2OS(=O)(=O)O,refers to: leading to dose reduction,healthy Chinese men,"intravenous, 2 g, treatment-emergent",,adverse event incidence,0%
COc1cc(Cl)c(C(=O)N[C@@H](CN[C@H]2CC[C@@H](N)CC2)Cc2ccc(C#N)cc2)cc1-c1ccc(CN[C@H](C)c2ccc(C)cc2)o1,,rat liver microsomes,"1 µM, pH 7.4",,blood clearance,3.5 L/h/kg
CC(C)CCC[C@@H](C)[C@H]1CC[C@H]2[C@@H]3C(O)CC4=CC(=O)CC[C@]4(C)[C@H]3CC[C@]12C (stereo partly shown),,"human, plasma",endogenous control diurnal,baseline: daily mean concentration,relative peak deviation,58.7 ± 11.1%
C/C(=N\c1ccc(O)cc1)c1cc2ccccc2n1C,,rat plasma,"1000 ng/mL, 15 days, -80 °C",baseline: nominal concentration,remaining compound,91.3 ± 1.8%
C[C@@H](Oc1ccc(S(C)(=O)=O)cc1C(=O)N1C[C@@H]2C[C@]2(c2cc(C(F)(F)F)on2)C1)C(F)(F)F,,human,"oral plus intravenous microtracer, dose not given",,subjects with related adverse events,33.3%
NC1(C(=O)N[C@@H](CCO)c2ccc(Cl)cc2)CCN(c2nc[nH]c3nccc2-3)CC1,,metastatic CRPC patients,"400 mg b.i.d., grade 3 to 4, treatment-related, added: enzalutamide 160 mg daily",,incidence of Fatigue,0%
NC(CO)(CO)CCc1ccc(Sc2cccc(OCc3ccccc3)c2)cc1Cl,,"human, supine","oral, 3 mg, 0 to 24 h, alone",,"pulse rate AUEC, geometric mean",1280 h×bpm
C[Si]1(C)O[Si](C)(C)O[Si](C)(C)O[Si](C)(C)O[Si](C)(C)O1,,1-octanol/water,"0.001-0.003 µg/L in water, 34.8 °C",,log KOW,8.47
CNC(=O)c1ccc(-c2cnc3ncc(Cc4ccc5ncccc5c4)n3n2)cc1F,,healthy human subjects,"oral, dose not given, all grades, all causality, added: rifampicin",baseline: subjects,diarrhoea incidence,11.5%
Cc1cccc(Cn2cc(CO)c3cnccc32)c1,,"male F344 rat, liver","oral, 100 mg/kg/day, 2 days",direction not given,liver histopathology score,0
CCc1cc(C(=O)NC)c2nccc(N3CCc4c(cc(Cn5ccnc5)cc4-c4cn(C)nc4C(F)(F)F)C3=O)c2c1,,Sprague Dawley rat,"oral, 100 mg/kg twice daily, 7 days",,spleen weight,0.526 ± 0.106 g
Cc1cc(-c2ccc3cc[nH]c(=O)c3c2)ccc1O[C@H]1O[C@H](CO)[C@@H](O)[C@H](O)[C@@H]1O,,"male Sprague-Dawley rat, urine","oral, 10 mg/kg, 24 h, mean",baseline: dose,urinary recovery,0.13%
CC(C)(C(=O)N1CCOc2c(C#N)cncc2C1)C(F)F,refers to: contact dermatitis,human,"oral, 20 mg once daily, 14 days, multiple ascending dose",,subjects with adverse event,0%

# Excerpt of the above:
SMILES,test,test system,conditions,scale,endpoint,result
Cc1ccc(Sc2ccccc2N2CCNCC2)c(C)c1,,healthy adult men,"oral, 10 mg single, 10 day",,blood in urine,0%
COCC(=O)N1CCC[C@H](C(=O)NCc2nc(-c3ccccc3)cs2)C1,,"Sprague-Dawley rat, male, plasma","intravenous, 1 mg/kg",,unbound hepatic CLint,1.14 L/h/kg
